Measured values from different studies.
Several values in a cell are separate wells, animals, samples, runs or records. ± marks the error that the study gave.

The AUC(0-t) of `COc1c(OCCCN2CCOCC2)ccc2c1N=C(NC(=O)c1cnc(N)nc1)N1CCN=C21` is reported as 1520 ng·h/mL (human solid tumour patients, plasma; intravenous, 0.8 mg/kg, cycle 1 day 15).
The AUC(0-t) of `CCNCc1cc(Nc2ccnc3cc(Cl)ccc23)ccc1O` is reported as 40300 ± 19800 ng·h/mL (HPLC-EC; human, fasting, both sexes, plasma; oral, 200 mg artesunate + 612 mg amodiaquine, non-fixed loose combination).
For `CCCCC1(CCCC)CN(c2ccccc2)c2cc(SC)c(OCC(=O)N[C@@H](C(=O)NCC(=O)O)c3ccccc3)cc2S(=O)(=O)C1`, the AUC(0-t) was 1.51 ng·h/mL (human, plasma; oral, 15 mg, before breakfast).
`CN[C@@H]1COc2c(S(=O)(=O)NC(=O)Nc3c4c(cc5c3CCC5)CCC4)cnn2C1` has an AUC(0-t) of 170000 ng·h/mL (human; oral, 600 mg, fasted, geometric LS mean).
For `CNc1nc(Nc2ccc(-n3cnc(C)n3)c(OC)c2)nc2c1CC[C@H]2c1ccc(F)cc1`, the AUC(0-t) was 4220 ng·h/mL (human; oral, 50 mg once daily, day 14, multiple ascending dose).
With `N[C@@H](Cc1ccc(O)c(O)c1)C(=O)O` the AUC(0-t) was 3860 ng·h/mL (human, plasma; oral, 150 mg single, geometric LS mean, together with: 37.5 mg carbidopa).
`CCCC[C@H](NC(C)=O)C(=O)N[C@H]1CCC(=O)NC[C@@H](C(=O)N[C@@H](Cc2c[nH]c3ccccc23)C(N)=O)NC(=O)[C@H](CCCNC(=N)N)NC(=O)[C@@H](Cc2ccccc2)NC(=O)[C@H](Cc2c[nH]cn2)NC1=O` has an AUC(0-t) of 49.4 ng·h/mL (healthy human, both sexes, plasma; subcutaneous, 1.0 mg once daily, day 1, arithmetic mean).
The AUC(0-t) of `Cl.NCCc1c[nH]c(=S)n1[C@H]1COc2c(F)cc(F)cc2C1` is reported as 1740 ng·h/mL (human male, fed high-fat meal, plasma; oral, 200 mg single dose, arithmetic mean).
`COc1cc2ncnc(Nc3ccc(F)c(Cl)c3)c2cc1OCCCN1CCOCC1` gave an AUC(0-t) of 3.85 ± 3 ng·h/mL (human, plasma; oral, 250 mg, together with: vorinostat 400 mg).
`CCCS(=O)(=O)N[C@H]1C[C@@H](N(C)c2ncnc3[nH]ccc23)C1` gave an AUC(0-t) of 5550 ng·h/mL (humans, normal hepatic function; oral, 200 mg single).
`CC[C@H](C)[C@H](NC(=O)[C@H](Cc1ccccc1)NC(=O)[C@H](CCC(=O)O)NC(=O)[C@H](CCCCNC(=O)COCCOCCNC(=O)COCCOCCNC(=O)CC[C@H](NC(=O)CCCCCCCCCCCCCCCCC(=O)O)C(=O)O)NC(=O)[C@H](C)NC(=O)[C@H](C)NC(=O)[C@H](CCC(N)=O)NC(=O)CNC(=O)[C@H](CCC(=O)O)NC(=O)[C@H](CC(C)C)NC(=O)[C@H](Cc1ccc(O)cc1)NC(=O)[C@H](CO)NC(=O)[C@H](CO)NC(=O)[C@@H](NC(=O)[C@H](CC(=O)O)NC(=O)[C@H](CO)NC(=O)[C@@H](NC(=O)[C@H](Cc1ccccc1)NC(=O)[C@@H](NC(=O)CNC(=O)[C@H](CCC(=O)O)NC(=O)C(C)(C)NC(=O)[C@@H](N)Cc1cnc[nH]1)[C@@H](C)O)[C@@H](C)O)C(C)C)C(=O)N[C@@H](C)C(=O)N[C@@H](Cc1c[nH]c2ccccc12)C(=O)N[C@@H](CC(C)C)C(=O)N[C@H](C(=O)N[C@@H](CCCNC(=N)N)C(=O)NCC(=O)N[C@@H](CCCNC(=N)N)C(=O)NCC(=O)O)C(C)C` gave an AUC(0-t) of 2.42 µM·h (human type 2 diabetes, plasma; subcutaneous, 0.5 mg, 840 h, together with: 175 U insulin icodec).
With `O=C(NCCN1CCCC1)c1cc(-c2ccc(CN3CCOCC3)cc2)nc2ccc(F)cc12` the AUC(0-t) was 492 ng·h/mL (LC-MS/MS; human, whole blood; oral, 50 mg, single dose, geometric mean).
`CC[C@H](C)[C@H](NC(=O)[C@H](Cc1ccc(O)cc1)NC(=O)[C@@H](NC(=O)[C@@H](N)CCCNC(=N)N)C(C)C)C(=O)N[C@@H](Cc1c[nH]cn1)C(=O)N1CCC[C@H]1C(=O)N[C@@H](Cc1ccccc1)C(=O)N[C@@H](Cc1c[nH]cn1)C(=O)N[C@@H](CC(C)C)C(=O)O` gave an AUC(0-t) of 79 ± 48.9 ng·h/mL (healthy humans, plasma; oral, 0.08 mg/kg single dose, 0 to 12 h).
With `COc1c(OCCCN2CCOCC2)ccc2c1N=C(NC(=O)c1cnc(N)nc1)N1CCN=C21` the AUC(0-t) was 432 ng·h/mL (human cancer patients, plasma; intravenous, 0.4 mg/kg weekly, cycle 1 day 1, compound alone, geometric mean).
With `CCOc1c([C@H](C)n2nc(C)c3c(N)ncnc32)cc(Cl)c(F)c1[C@@H]1CNC(=O)C1` the AUC(0-t) was 7.31 ± 0.792 µM·h (healthy human, fasted; oral, 10 mg).
With `Cc1[nH]c(/C=C2\C(=O)Nc3ccccc32)c(C)c1CCC(=O)O` the AUC(0-t) was 17300 ± 6870 ng·h/mL (human patients; oral, 400 mg/m^2 three times daily, after meal, dose 82).
With `C=CC(=O)Nc1cc(Nc2ncc(C(=O)OC(C)C)c(-c3cn(C)c4ccccc34)n2)c(OC)cc1N(C)CCN(C)C` the AUC(0-t) was 1100 ng·h/mL (human, fasted; oral, 160 mg single dose, arithmetic mean).
`COc1cccc(-c2ccc(NC(=O)C3=C(C(=O)O)CCC3)c(F)c2)c1` has an AUC(0-t) of 47400 ng·h/mL (human, male, fed, plasma; oral, 10 mg, single dose, geometric mean).
With `Cc1ccc(NC(=O)c2ccc(CN3CCN(C)CC3)cc2)cc1Nc1nccc(-c2cncc(-c3oncc3C)c2)n1` the AUC(0-t) was 243000 ng·h/mL (older healthy human adults, plasma; oral, 325 mg single dose, fed, mean).
The AUC(0-t) of `CC(C)[C@@H](CS(=O)(=O)C(C)C)N1C(=O)[C@@](C)(CC(=O)O)C[C@H](c2cccc(Cl)c2)[C@H]1c1ccc(Cl)cc1` is reported as 2460 ng·h/mL (human, plasma; oral, 60 mg, old tablet, fasted, geometric LS mean).
With `CO[C@H]1C[C@@H]2CC[C@@H](C)[C@@](O)(O2)C(=O)C(=O)N2CCCC[C@H]2C(=O)O[C@H]([C@H](C)C[C@@H]2CC[C@@H](OC(=O)C(C)(CO)CO)[C@H](OC)C2)CC(=O)[C@H](C)/C=C(\C)[C@@H](O)[C@@H](OC)C(=O)[C@H](C)C[C@H](C)/C=C/C=C/C=C/1C` the AUC(0-t) was 6200 ng·h/mL (human, whole blood; intravenous, 60 mg/m2 weekly, 0 to 24 h post dose, cycle 5, together with: valproic acid).
With `O=C(O)CNC(=O)c1c(O)c2ccccc2n(OCC2CC2)c1=O` the AUC(0-t) was 19200 ± 8820 ng·h/mL (LC-MS/MS; human, blood; oral, 100 mg multiple doses).
For `CC(C)NC[C@@H](C(=O)N1CCN(c2ncnc3c2[C@H](C)C[C@H]3O)CC1)c1ccc(Cl)cc1`, the AUC(0-t) was 985 ng·h/mL (human, Moderate hepatic function, plasma; oral, 100 mg single dose, NCI classification, geometric mean).
`COc1cc2c(cc1OC)CN(CCc1ccc(NC(=O)c3cc(OC)c(OC)cc3NC(=O)c3cnc4ccccc4c3)cc1)CC2` has an AUC(0-t) of 2610 ng·h/mL and 3420 ng·h/mL and 2650 ng·h/mL and 2710 ng·h/mL (LC-MS; human, venous plasma; intravenous infusion, 2 mg/kg, 0-4 h).
The AUC(0-t) of `Cc1cc(C)c2c(c1)[C@@H](N(Cc1cc(C(F)(F)F)cc(C(F)(F)F)c1)c1nnn(C)n1)CCCN2C[C@H]1CC[C@H](C(=O)O)CC1` is reported as 7570 ng·h/mL (human, plasma; oral, 300 mg once daily, steady state, geometric mean).
`C#C[C@]1(O)CC[C@H]2[C@@H]3CCC4=CC(=O)CC[C@@H]4[C@H]3CC[C@@]21C` has an AUC(0-t) of 38.1 ng·h/mL (human female, plasma; oral, 1 mg, day 1, together with: ethinyl estradiol 35 µg).
`O=c1[nH]c(=O)c(Cc2cccc(C(F)(F)F)c2)c([C@H]2CC[C@H](c3ccccc3)CC2)[nH]1` has an AUC(0-t) of 1090 ng·h/mL (human, fasted, plasma; oral, 100 mg single dose, geometric mean).
`C=C(C)[C@@H]1CC[C@]2(NCCN3CCS(=O)(=O)CC3)CC[C@]3(C)[C@H](CC[C@@H]4[C@@]5(C)CC=C(C6=CC[C@@](CF)(C(=O)O)CC6)C(C)(C)[C@@H]5CC[C@]43C)[C@@H]12` gave an AUC(0-t) of 37900 ng·h/mL (healthy human volunteers, plasma; oral, 200 mg, tablet, moderate-fat state, geometric mean).
The AUC(0-t) of `CCn1c(=O)c2c(nc(/C=C/c3ccc(OC)c(OC)c3)n2C)n(CC)c1=O` is reported as 1960 ng·h/mL (healthy human, plasma; oral, 40 mg single dose, geometric mean, together with: rifampin 600 mg/day steady state).
The AUC(0-t) of `N#C[C@@H]1C[C@@H]2C[C@@H]2N1C(=O)[C@@H](N)C12CC3CC(CC(O)(C3)C1)C2` is reported as 325 ng·h/mL (healthy human subjects, plasma; oral, 10 mg, day 10, geometric mean, together with: diltiazem extended-release 360 mg).
`CN(Cc1cnc2nc(N)nc(N)c2n1)c1ccc(C(=O)N[C@@H](CCC(=O)O)C(=O)O)cc1` gave an AUC(0-t) of 2950 ng·h/mL (human, both sexes, plasma; oral, 20 mg, day 1, alone, arithmetic mean).

Some of these lines once more:
`CC[C@H](C)[C@H](NC(=O)[C@H](Cc1ccccc1)NC(=O)[C@H](CCC(=O)O)NC(=O)[C@H](CCCCNC(=O)COCCOCCNC(=O)COCCOCCNC(=O)CC[C@H](NC(=O)CCCCCCCCCCCCCCCCC(=O)O)C(=O)O)NC(=O)[C@H](C)NC(=O)[C@H](C)NC(=O)[C@H](CCC(N)=O)NC(=O)CNC(=O)[C@H](CCC(=O)O)NC(=O)[C@H](CC(C)C)NC(=O)[C@H](Cc1ccc(O)cc1)NC(=O)[C@H](CO)NC(=O)[C@H](CO)NC(=O)[C@@H](NC(=O)[C@H](CC(=O)O)NC(=O)[C@H](CO)NC(=O)[C@@H](NC(=O)[C@H](Cc1ccccc1)NC(=O)[C@@H](NC(=O)CNC(=O)[C@H](CCC(=O)O)NC(=O)C(C)(C)NC(=O)[C@@H](N)Cc1cnc[nH]1)[C@@H](C)O)[C@@H](C)O)C(C)C)C(=O)N[C@@H](C)C(=O)N[C@@H](Cc1c[nH]c2ccccc12)C(=O)N[C@@H](CC(C)C)C(=O)N[C@H](C(=O)N[C@@H](CCCNC(=N)N)C(=O)NCC(=O)N[C@@H](CCCNC(=N)N)C(=O)NCC(=O)O)C(C)C` gave an AUC(0-t) of 2.42 µM·h (human type 2 diabetes, plasma; subcutaneous, 0.5 mg, 840 h, together with: 175 U insulin icodec).
With `O=C(NCCN1CCCC1)c1cc(-c2ccc(CN3CCOCC3)cc2)nc2ccc(F)cc12` the AUC(0-t) was 492 ng·h/mL (LC-MS/MS; human, whole blood; oral, 50 mg, single dose, geometric mean).
`CC[C@H](C)[C@H](NC(=O)[C@H](Cc1ccc(O)cc1)NC(=O)[C@@H](NC(=O)[C@@H](N)CCCNC(=N)N)C(C)C)C(=O)N[C@@H](Cc1c[nH]cn1)C(=O)N1CCC[C@H]1C(=O)N[C@@H](Cc1ccccc1)C(=O)N[C@@H](Cc1c[nH]cn1)C(=O)N[C@@H](CC(C)C)C(=O)O` gave an AUC(0-t) of 79 ± 48.9 ng·h/mL (healthy humans, plasma; oral, 0.08 mg/kg single dose, 0 to 12 h).
With `COc1c(OCCCN2CCOCC2)ccc2c1N=C(NC(=O)c1cnc(N)nc1)N1CCN=C21` the AUC(0-t) was 432 ng·h/mL (human cancer patients, plasma; intravenous, 0.4 mg/kg weekly, cycle 1 day 1, compound alone, geometric mean).
